Assay results pooled from the literature.
Parts stem from different laboratories: compare values within a part only.

Block 1
Target: Sal-like protein 4, full length isoform A (SALL4, Homo sapiens, UniProt Q9UJQ4, residues 1-1053)
Chain of UniProt Q9UJQ4 (whole entry, looked up): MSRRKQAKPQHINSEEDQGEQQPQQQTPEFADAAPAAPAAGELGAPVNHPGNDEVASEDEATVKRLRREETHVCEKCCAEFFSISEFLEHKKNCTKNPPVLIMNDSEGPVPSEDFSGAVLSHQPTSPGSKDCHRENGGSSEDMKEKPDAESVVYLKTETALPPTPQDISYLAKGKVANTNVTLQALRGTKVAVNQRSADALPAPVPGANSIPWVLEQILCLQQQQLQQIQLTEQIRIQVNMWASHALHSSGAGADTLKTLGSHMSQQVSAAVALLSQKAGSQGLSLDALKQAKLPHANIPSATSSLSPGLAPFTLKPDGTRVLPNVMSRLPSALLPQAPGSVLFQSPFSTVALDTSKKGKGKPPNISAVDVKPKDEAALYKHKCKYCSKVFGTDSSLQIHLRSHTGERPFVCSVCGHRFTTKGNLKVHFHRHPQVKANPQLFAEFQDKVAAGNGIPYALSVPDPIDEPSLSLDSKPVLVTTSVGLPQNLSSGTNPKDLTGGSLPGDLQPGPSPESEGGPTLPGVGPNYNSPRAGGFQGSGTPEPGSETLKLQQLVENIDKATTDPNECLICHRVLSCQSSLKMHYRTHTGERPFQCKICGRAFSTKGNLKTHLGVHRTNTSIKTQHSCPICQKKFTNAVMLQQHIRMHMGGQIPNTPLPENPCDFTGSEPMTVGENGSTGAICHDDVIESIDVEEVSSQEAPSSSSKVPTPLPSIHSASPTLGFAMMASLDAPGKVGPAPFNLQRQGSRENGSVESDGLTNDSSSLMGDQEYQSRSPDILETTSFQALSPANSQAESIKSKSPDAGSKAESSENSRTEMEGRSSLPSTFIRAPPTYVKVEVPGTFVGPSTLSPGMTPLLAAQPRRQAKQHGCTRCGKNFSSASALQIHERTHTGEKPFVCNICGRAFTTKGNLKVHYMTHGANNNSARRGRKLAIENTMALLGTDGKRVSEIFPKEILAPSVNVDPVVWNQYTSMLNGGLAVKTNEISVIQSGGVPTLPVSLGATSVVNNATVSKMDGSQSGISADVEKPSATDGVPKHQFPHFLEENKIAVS
Technique: universal PBM
Form: double-stranded DNA, one strand shown
Sample: in vitro
Concentration: 600 nM
Notes: 8-mer, flanks averaged, mean of replicates
Reading: higher = stronger binding
| Strand | E-score |
| --- | --- |
| AGATTTTC | 0.143 |
| CATGGTAC | 0.00822 |
| CTCATCAG | 0.0997 |
| AAGCCGCC | -0.296 |
| AATTACAT | 0.286 |
| AGGGTTTC | -0.0927 |
| AGCGCGCA | -0.0644 |
| AAGCGCAC | -0.139 |
| CAGCTGGC | -0.259 |
| GGGCCGAC | -0.343 |
| GTCCCTCA | -0.115 |
| CCCAGCTA | -0.191 |
| AGCTAACT | 0.184 |
| ATCAAGCA | 0.127 |
| GGCGTGAC | -0.266 |
| CTCAAACA | 0.154 |
| GTGTTACA | 0.122 |
| AGACTCCA | -0.0806 |
| ACATGAAG | 0.172 |
| ACGGAACA | -0.0581 |
| CGCTGCAC | -0.275 |
| AAAAGACT | 0.114 |
| GGTAAACA | 0.225 |
| ACAGAAGG | -0.245 |
| ACACGAAC | -0.122 |

Block 2
Target: Histone acetyltransferase KAT6A, both winged helices, GST fusion (KAT6A, Homo sapiens, UniProt Q92794, residues 1-181)
Technique: protein binding microarray
Form: double-stranded DNA, one strand shown
Sample: in vitro
Concentration: not given
Notes: 8-mer, flanks averaged, mean of 2 arrays, mostly near background
Relative to: not given
Reading: higher = stronger binding
Construct (chain): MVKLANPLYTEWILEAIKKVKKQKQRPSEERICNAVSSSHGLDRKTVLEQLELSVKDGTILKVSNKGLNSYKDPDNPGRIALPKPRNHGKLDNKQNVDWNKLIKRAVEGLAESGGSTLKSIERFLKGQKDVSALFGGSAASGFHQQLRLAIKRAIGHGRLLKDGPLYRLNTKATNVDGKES
| Strand | E-score |
| --- | --- |
| AAACCAAA | -0.0644 |
| AAGCTTGT | -0.037 |
| CGCAATTA | 0.283 |
| AGCTGATC | -0.124 |
| GGGCATAC | 0.00341 |
| ATCAAGCA | -0.114 |
| AGCATCGG | 0.112 |
| AGAAGCGA | -0.00142 |
| ACGCACCG | 0.202 |
| ACCAGCCG | 0.122 |
| ATCGCGGG | 0.173 |
| CACCGATA | -0.0636 |
| ATGTAACC | 0.163 |
| GACAGGTA | -0.162 |
| CCTCGAGA | -0.184 |
| CGGGACCA | 0.0824 |
| AATGGTCT | -0.0661 |
| GAGAGCAC | -0.0566 |
| CTACCTAA | -0.0513 |
| GTGAGGAA | -0.0407 |
| ATTGATGA | -0.12 |
| AATTCTTG | -0.041 |
| AGTCTATA | -0.0408 |
| ATTACTTG | -0.185 |
| GGATGCCC | -0.00428 |

Block 3
Target: RNA binding protein fox-1 homolog 2, RRM domain, GST-SBP tag (RBFOX2, Homo sapiens, UniProt O43251-10, residues 100-194)
Technique: RNA Bind-n-Seq
Form: RNA
Sample: in vitro
Concentration: 365 nM
Notes: natural RNA segment, single round, ends assumed
Relative to: no-protein control
Reading: higher = stronger binding
Shared flanks, not repeated: GGGAGUUCUACAGUCCGACGAUC … UGGAAUUCUCGGGUGCCAA
Target sequence (chain): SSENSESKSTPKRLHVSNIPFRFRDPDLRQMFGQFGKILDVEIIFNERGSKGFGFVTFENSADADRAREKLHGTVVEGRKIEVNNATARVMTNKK
| Strand | RBNS enrichment (R) |
| --- | --- |
| CCCCAGCUAAGAUAGCAUGAGGACGUUGUAUUCCAAUAUACGUAUGAUUGGGGCUACAAAGCUGAACUAAAGCAAGAUUGGUGAAGUGGCAGGGUUUAUAGAGAGAAGCC | 3.81 |
| AAGUGUUCUUUGAUUUUGGCUUUGAGGCUGCCAUUUCUGGAAUAAGGGGGGAUGGGAAACAGCUGACUUCAAUUACCGUGCUGUAUAUUACCGUGCUGUAUACCUAUCUA | 0.432 |
| AGUAUGUUCUGUGUCUCCACUAGCCACUUCUGGGGAGUGCCUGAAGCUCUUUGACUUUGACAAGAGGUUCUAGUUAAAGCACACACUUAAUCUACAGCCACUCUCUACCU | 0.274 |
| AAACAGCGGGGCUCCAGGAGCGGCAAGUGACAGUCACGGGGAGGUGCUGGUUCCAUGCCUGCUCUCGAGGCAGCAGUGGGUUCAGGCCCAUCAGCUACCCCUGCAGCUGG | 0.433 |
| UCAUUGGCUUCUAGAAAUCAGAUGCCCAGAUGAUCCAAGACUAGUUUGUUAUCUCAUCUGGAACCUACACCAAGAGAUGCAGUCAGCAUCUUAAAGUAAAUGUUCAUGGA | 0.287 |
| AGUCAUUCUGCUUCUCAUCUAAAUAUUUCCAUAUUCUGUAUUAGGAGAAAAUUACCCUCCCAGCACCAGCCCCCCUCUCAAACCCCCAACCCAAAACCAAGCAUUUUGGA | 0.393 |
| GGGACAGGCCUGGAUGAUCUAGCUCAUACCAAAGGACCUUGUUCUGAGAGGUUCUUGCCUGCAGGAGAAGCUGUCACAUCUCAAGCAUGUGAGGCACCGUUUUUCUCGUC | 2.54 |
| UCGAGGCUGUUCUUCAAGAAUUAAAAUUGAAGUGAAAAUUUAAACAAAAAUAAAAGAAUUUAGCAAACCCAUGUGUCUGGUUGCUUGAACUACACCCUCAGAGCAAGAGG | 1.12 |
| UGCAGGGACAGAUGAUGUGCUGUCCUGUAUGAACCAUGCAUUCCAAUGGUACAACUGCCCAAAUCCACCUUUGGUUUCUGAUGACUUACAAGUGACUAUAGAAGAAAGAG | 0.821 |
| GGAAGGCAAAGCAGAUAUGGAGACUCUCCAGAGAAUUUAUGGCAUUUCAUUCCCAGAUCCUAAAAUGUUGAAAGAGUGGGAGAAGUUCCAAGAGGAAGCUAAAAACCGAG | 0.665 |
| UUUAAAUAAGGGGAAAUAGUAUCUUUAAAGUUAAUGUCUAGCCAAGAGUUUAGUAAACGAAGAAUUAAACUGCACUGUUGAUCGGUGCUUUGUGUAAAUACAUCUUUAAC | 0.802 |
| UACAAGUUAAAAUAAUUAGAAACUAUGACUGCGCCUAGUAAAGUCAUCUAGGUUUAUAGUUCAGUAGCUUAGGCAAGGCACACACUGCUCAUCUCCGCUUUUUAGGGUCA | 0.553 |

Block 4
Target: Hepatocyte nuclear factor 3-beta, forkhead domain (FOXA2, Homo sapiens, UniProt Q9Y261, residues 142-269)
Technique: protein-binding microarray
Form: double-stranded DNA, one strand shown
Sample: in vitro
Concentration: not given
Notes: k-mer, scored over probes, only values ≥0.25
Reading: higher = stronger binding
Residues (chain): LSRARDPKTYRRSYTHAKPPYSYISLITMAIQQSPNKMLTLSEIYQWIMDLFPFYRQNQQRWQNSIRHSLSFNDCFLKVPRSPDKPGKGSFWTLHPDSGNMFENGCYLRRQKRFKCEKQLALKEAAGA
| Strand | E-score |
| --- | --- |
| ATAAACAA | 0.378 |
| ATTACTAC | 0.279 |
| TTGACAAA | 0.27 |
| TATAACCA | 0.275 |
| AACAACAT | 0.291 |
| ATTGACCA | 0.258 |
| GTAATTAC | 0.35 |
| GTTGATAA | 0.365 |
| CCTATTAC | 0.258 |
| ATATGACA | 0.301 |
| AATATTAG | 0.301 |
| TAAATATA | 0.393 |
| TACCTACA | 0.275 |
| CGATTGTA | 0.267 |
| TTAGATAA | 0.256 |
| ATAATAAC | 0.264 |
| AATGTTTA | 0.282 |
| GTATTCAC | 0.251 |
| ACTATATA | 0.347 |
| AACAGTAC | 0.27 |
| AAATAAAT | 0.287 |
| TAATAGTA | 0.288 |
| ATGCATCA | 0.335 |
| ATTTATTC | 0.261 |
| TTACTCAA | 0.263 |

A few entries again (block 3):
| Strand | RBNS enrichment (R) |
| --- | --- |
| AGUAUGUUCUGUGUCUCCACUAGCCACUUCUGGGGAGUGCCUGAAGCUCUUUGACUUUGACAAGAGGUUCUAGUUAAAGCACACACUUAAUCUACAGCCACUCUCUACCU | 0.274 |
| UGCAGGGACAGAUGAUGUGCUGUCCUGUAUGAACCAUGCAUUCCAAUGGUACAACUGCCCAAAUCCACCUUUGGUUUCUGAUGACUUACAAGUGACUAUAGAAGAAAGAG | 0.821 |
| UACAAGUUAAAAUAAUUAGAAACUAUGACUGCGCCUAGUAAAGUCAUCUAGGUUUAUAGUUCAGUAGCUUAGGCAAGGCACACACUGCUCAUCUCCGCUUUUUAGGGUCA | 0.553 |
| GGAAGGCAAAGCAGAUAUGGAGACUCUCCAGAGAAUUUAUGGCAUUUCAUUCCCAGAUCCUAAAAUGUUGAAAGAGUGGGAGAAGUUCCAAGAGGAAGCUAAAAACCGAG | 0.665 |
| UUUAAAUAAGGGGAAAUAGUAUCUUUAAAGUUAAUGUCUAGCCAAGAGUUUAGUAAACGAAGAAUUAAACUGCACUGUUGAUCGGUGCUUUGUGUAAAUACAUCUUUAAC | 0.802 |
